Values quoted from earlier work that unrelated publications cite.
Values joined by “and” are separate records of one study, mostly repeats; a detail may differ. Numbers after ± are the reported error.
Chain of UniProt P40337 (whole entry, unmodified, looked up): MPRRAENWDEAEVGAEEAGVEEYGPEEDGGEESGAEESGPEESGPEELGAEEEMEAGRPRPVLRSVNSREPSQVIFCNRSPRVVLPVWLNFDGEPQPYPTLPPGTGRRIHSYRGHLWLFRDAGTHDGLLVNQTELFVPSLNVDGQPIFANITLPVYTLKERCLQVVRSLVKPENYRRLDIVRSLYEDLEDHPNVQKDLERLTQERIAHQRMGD
Chain of UniProt Q15858 (whole entry, looked up): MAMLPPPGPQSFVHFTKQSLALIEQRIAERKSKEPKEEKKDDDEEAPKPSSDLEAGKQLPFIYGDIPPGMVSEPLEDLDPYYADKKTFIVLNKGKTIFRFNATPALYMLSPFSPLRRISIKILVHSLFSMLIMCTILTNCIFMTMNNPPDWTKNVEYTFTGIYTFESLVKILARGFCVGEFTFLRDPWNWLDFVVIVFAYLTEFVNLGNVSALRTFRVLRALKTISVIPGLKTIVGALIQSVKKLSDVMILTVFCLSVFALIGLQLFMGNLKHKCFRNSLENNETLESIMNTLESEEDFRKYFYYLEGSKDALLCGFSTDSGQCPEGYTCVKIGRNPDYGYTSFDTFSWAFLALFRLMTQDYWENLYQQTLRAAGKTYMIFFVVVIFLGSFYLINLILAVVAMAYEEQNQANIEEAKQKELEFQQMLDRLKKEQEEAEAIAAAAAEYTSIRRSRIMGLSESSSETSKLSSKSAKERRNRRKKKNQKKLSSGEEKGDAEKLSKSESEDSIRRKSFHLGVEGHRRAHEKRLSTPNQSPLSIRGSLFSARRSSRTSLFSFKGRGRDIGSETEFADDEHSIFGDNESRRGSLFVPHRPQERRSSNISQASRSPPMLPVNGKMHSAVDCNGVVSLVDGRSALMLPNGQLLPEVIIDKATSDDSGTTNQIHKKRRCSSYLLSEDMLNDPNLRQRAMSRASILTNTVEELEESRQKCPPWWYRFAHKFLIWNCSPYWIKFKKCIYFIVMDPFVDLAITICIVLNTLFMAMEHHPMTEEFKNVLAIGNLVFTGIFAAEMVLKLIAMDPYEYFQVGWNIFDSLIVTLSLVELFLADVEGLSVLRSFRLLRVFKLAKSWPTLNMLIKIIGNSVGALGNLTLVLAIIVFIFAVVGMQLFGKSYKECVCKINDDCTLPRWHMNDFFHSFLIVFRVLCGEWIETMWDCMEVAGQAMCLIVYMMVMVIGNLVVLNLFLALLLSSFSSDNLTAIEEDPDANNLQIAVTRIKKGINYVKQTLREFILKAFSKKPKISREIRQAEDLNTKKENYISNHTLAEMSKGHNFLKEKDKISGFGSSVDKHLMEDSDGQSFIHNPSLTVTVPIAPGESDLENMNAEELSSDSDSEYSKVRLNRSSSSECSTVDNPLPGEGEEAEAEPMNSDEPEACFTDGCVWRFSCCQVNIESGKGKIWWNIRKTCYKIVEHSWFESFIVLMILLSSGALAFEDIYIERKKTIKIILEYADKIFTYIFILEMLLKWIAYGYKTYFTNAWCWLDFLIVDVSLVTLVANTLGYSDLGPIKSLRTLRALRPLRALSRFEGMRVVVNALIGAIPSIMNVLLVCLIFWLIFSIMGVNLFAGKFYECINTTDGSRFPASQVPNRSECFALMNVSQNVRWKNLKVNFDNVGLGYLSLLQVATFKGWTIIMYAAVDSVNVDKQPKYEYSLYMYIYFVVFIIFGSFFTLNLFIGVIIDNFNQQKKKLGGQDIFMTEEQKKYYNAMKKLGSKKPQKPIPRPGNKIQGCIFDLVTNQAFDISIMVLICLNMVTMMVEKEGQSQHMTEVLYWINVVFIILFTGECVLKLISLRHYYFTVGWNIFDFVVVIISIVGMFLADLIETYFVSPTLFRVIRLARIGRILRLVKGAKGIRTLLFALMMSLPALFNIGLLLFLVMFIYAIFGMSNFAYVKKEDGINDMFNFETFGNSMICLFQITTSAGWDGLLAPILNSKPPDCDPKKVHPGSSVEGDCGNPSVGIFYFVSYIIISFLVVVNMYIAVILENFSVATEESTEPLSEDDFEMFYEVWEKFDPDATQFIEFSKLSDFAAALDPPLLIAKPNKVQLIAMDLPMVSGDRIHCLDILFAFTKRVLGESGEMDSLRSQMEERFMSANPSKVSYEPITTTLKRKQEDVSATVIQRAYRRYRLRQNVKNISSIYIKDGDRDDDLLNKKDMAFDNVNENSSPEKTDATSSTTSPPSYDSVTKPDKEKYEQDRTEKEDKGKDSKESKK

Compound	tested on	test	test system	conditions	how to read	quantity	value
CC(C)NCCCn1c(Sc2cc(Cl)cc(Cl)c2)nc2c(N)ncnc21	Grp94	–	–	–	–	IC50	0.022 µM
COc1cccc(-c2cc(F)ccc2[C@H]2Cc3nc(N)nc(C)c3C(=O)N2)n1	TRAP1	inhibitor	–	–	–	IC50	0.32 µM
CCCCCCCCCCCCCC(=O)N[C@H](CO)[C@H](O)c1ccc([N+](=O)[O-])cc1	acid ceramidase	enzyme activity, radiometric	HaCaT	–	–	IC50	~10 µM
CN(CCN)Cc1ccccc1Sc1ccccc1Cl	PRMT1	enzyme activity, inhibitor, radiometric	–	–	–	IC50	0.0053 µM
Cc1sc(-c2ccc(C(F)(F)F)cc2)nc1-c1nn[nH]c1C#N	–	–	ZDF rat	4 mg/kg/day, 6 weeks	–	HbA1c at end of treatment	9.14 ± 0.18%
COc1ccc(Nc2nc(Nc3ccc(OCC[18F])cc3)ncc2Br)cc1	–	–	S180 tumour-bearing mice	intravenous, 30 min	relative to: tumour over blood	tumour to tissue ratio	1.69
N#CN=C(NCc1ccc(S(=O)(=O)c2cccc(OC(F)(F)F)c2)cc1)Nc1ccncc1	NAMPT	–	–	–	–	IC50	0.0044 µM
CCCOc1ccc(C=C2C(=O)NN(c3ccccc3)C2=O)c(OCC(O)CC(=O)O)c1C (stereo not drawn)	P2Y12 receptor	inhibitor	–	S-enantiomer, literature value	–	IC50	0.0008 µM
CCCN(C)c1cc(C(F)(F)F)nc(SCCC(=O)NCc2ccco2)n1	TRPV2	inhibitor	–	–	–	IC50	0.46 µM
CCCNc1ccc(C(=O)C=C(O)C(F)(F)C(F)(F)F)cn1	Plasmodium falciparum formate-nitrite transporter	L-lactate transport, inhibitor, radiolabelled uptake	yeast	–	–	IC50	0.2 ± 0.02 µM
CCc1c(-c2cccc(NNC(=O)[C@H](C)c3cc(F)cc(F)c3)c2)ccc(O)c1C	SGK1	–	–	literature value	–	IC50	3.35 µM
O=C(C=C(O)C(F)(F)C(F)(F)F)c1ccoc1	Plasmodium falciparum formate-nitrite transporter	L-lactate transport, inhibitor, radiolabelled uptake	yeast	–	–	IC50	0.1 ± 0.01 µM
CN(C)CCCOc1ccc2c(c1)CN(C(=O)c1cc(C(=O)N3Cc4cccc(F)c4C3)ccc1O)C2	Hsp90α human	–	–	–	–	IC50	> 10 µM
O=c1ccc(OCCCN2CCCCC2)nn1-c1ccc(Cl)c(Cl)c1	Sodium channel protein type 9 subunit alpha (SCN9A, Homo sapiens, UniProt Q15858)	–	–	1.0 µM	–	inhibition	24.6 ± 1.2%
COc1cccc(Cn2cc(-c3cccc(NC(=O)Nc4ccc(Br)cc4)c3)nn2)c1	IDO1	inhibitor	–	–	–	IC50	0.75 µM
CCCc1cc2cc(-n3nc(CC)c4c3CC(C)(C)CC4=O)cc(NC3CCC(O)CC3)c2c(=O)[nH]1 (stereo not drawn)	Hsp90α human	–	–	–	–	IC50	> 10 µM
CNc1ccc(C(=O)C=C(O)C(F)(F)C(F)(F)F)cn1	Plasmodium falciparum formate-nitrite transporter	L-lactate transport, inhibitor, radiolabelled uptake	yeast	–	–	IC50	0.13 ± 0.02 µM
C[C@H](CN(C)Cc1ccccc1)NC(=O)c1ccc(-c2noc(C(F)(F)F)n2)cc1	HDAC4	–	–	–	–	IC50	8e-05 ± 2e-05 µM
COc1ccc(C)cc1S(=O)(=O)Nc1ccc(Cl)c(N2CCCS2(=O)=O)c1	urea transporter UT-A1	inhibitor	–	–	–	IC50	~1 µM
Cc1ccc2c(c1)nc(CCN1C(=O)c3cccc4cccc(c34)C1=O)n2-c1ccncc1	–	–	Sprague-Dawley rat	oral, 10 mg/kg	–	Cmax	32 ng/mL
Cc1ncsc1-c1ccc2c(c1)OCCOCCOC[C@@H](NC(=O)C[C@@H]1N=C(c3ccc(Cl)cc3)c3c(sc(C)c3C)-n3c(C)nnc31)COCCOCCOCC(=O)N[C@@H](C(C)(C)C)C(=O)N1C[C@H](O)C[C@H]1C(=O)NC2	von Hippel-Lindau disease tumor suppressor, with Elongin B/C (VHL, Homo sapiens, UniProt P40337)	isothermal titration calorimetry	–	VCB titrated into compound	–	ΔH	-6.7 kcal/mol
O=C(CCCOc1ccc(Cl)cc1)N[C@H]1CCOC1=O	CviR, Chromobacterium violaceum	reporter gene, antagonist, vioA-gfp reporter	–	–	–	IC50	2 µM
O=C(Nc1ccc(OC(F)(F)F)cc1)NC1CCN(C(=O)C2CC2)CC1	soluble epoxide hydrolase (rat)	enzyme activity	–	–	–	IC50	0.0099 ± 0.0001 µM
COc1cc2ncc3[nH]c(=O)n([C@H](C)c4ccccn4)c3c2cc1-c1c(C)noc1C	BRD2	–	–	–	–	IC50	0.5 µM
CCc1ccc(-c2cc(C(N)=O)c(NC3CCC(O)CC3)cc2C)cc1 (stereo not drawn)	Hsp90α human	–	–	–	–	IC50	> 50 µM
Cc1[nH]c(=O)c(CNC(=O)c2cc(Cl)c3c(c2C)O[C@@](C)([C@H]2CC[C@H](N(C)C)CC2)O3)c(C)c1O	EZH2	enzyme activity, inhibitor	–	–	–	IC50	0.026 µM

Compound	tested on	test	test system	conditions	how to read	quantity	value
O=C(CCCc1ccccc1)NC1CCOC1=O (stereo not drawn)	LuxR	reporter gene, luxI-luxCDABE reporter	–	–	–	IC50	2 µM
COc1nc(-c2cc(C)c(NC(C)c3ccc(F)cc3)nn2)ccc1-n1cnc(C)c1 (stereo not drawn)	Notch	inhibitor	–	–	–	IC50	> 25 µM
CCOC(=O)C(c1cc(Cl)c2cccnc2c1O)c1c[nH]c2ccccc12 (stereo not drawn)	MRC-5 fibroblasts	cell viability	–	–	–	IC50	54.5 µM and 55.1 µM
O=C(Cc1ccc(Br)cc1)N[C@H]1CCOC1=O	TraR	traI-lacZ reporter, inhibitor	–	–	–	IC50	6 µM
CC(C)=CCC/C(C)=C/CCn1cc(CC(C)(P(=O)(O)O)P(=O)(O)O)nn1	geranylgeranyl diphosphate synthase	enzyme activity, inhibitor	–	–	–	IC50	0.125 µM
CS(=O)(=O)Nc1ccc(-c2cncc(-c3cccc4cc[nH]c34)c2)cc1	PI5P4Kβ	inhibitor	–	–	–	IC50	9.4 µM
Cc1nn(C)c2c(C(C(=O)O)N3CC(OCCCCc4ccc5c(n4)NCCC5)C3)cccc12 (stereo not drawn)	integrin α5β1	cell-based	–	–	–	IC50	0.04 µM
COc1cccc(/C=C2/SC(=N)NC2=O)c1OC	urea transporter UT-A1	inhibitor	–	–	–	IC50	~7 µM
O=C(C=C(O)C(F)(F)C(F)(F)F)c1ccc(N2CCNCC2)nc1	Plasmodium falciparum formate-nitrite transporter	L-lactate transport, inhibitor, radiolabelled uptake	yeast	–	–	IC50	17.3 ± 6.5 µM
CCc1cccc(Sc2cc(C(=O)N3Cc4ccccc4C3)ccc2O)c1	Hsp90α human	–	–	–	–	IC50	0.46 µM
Nc1n[nH]c2c1c(Nc1ccc(F)cc1)nc1ccccc12	Escherichia coli beta-glucuronidase	enzyme activity	–	–	–	IC50	0.14 µM
CN(C)C/C=C/C(=O)Nc1ccc(C(=O)Nc2cccc(Nc3cc(-c4c[nH]c5ccccc45)ncn3)c2)cc1	BRK kinase (PTK6)	enzyme activity, inhibitor	–	–	–	IC50	< 0.32 µM
O=C(C=C(O)C(F)(F)C(F)(F)F)c1ccc(NC2CC2)nc1	Plasmodium falciparum formate-nitrite transporter	L-lactate transport, inhibitor, radiolabelled uptake	yeast	–	–	IC50	0.19 ± 0.02 µM
O=C(CCc1ccc(Br)cc1)N[C@H]1CCOC1=O	TraR	traI-lacZ reporter, inhibitor	–	–	–	IC50	1 µM
COc1cc(CNc2ccc(C(=O)C=C(O)C(F)(F)C(F)(F)F)cn2)cc(OC)c1OC	Plasmodium falciparum formate-nitrite transporter	L-lactate transport, inhibitor, radiolabelled uptake	yeast	–	–	IC50	2.11 ± 0.32 µM
N=C(N)NCCC[C@H](NCc1ccccn1)C(=O)NCc1ccc(CNCCCNC2CCCCC2)cc1	CXCR4	binding, competitive binding	–	–	–	IC50	0.012 µM
CCCN(C)c1ccc(C(=O)C=C(O)C(F)(F)C(F)(F)F)cn1	Plasmodium falciparum formate-nitrite transporter	L-lactate transport, inhibitor, radiolabelled uptake	yeast	–	–	IC50	0.35 ± 0.8 µM
Cc1cc(OC(C)C)cc(C)c1C(=O)N[C@@H](CNC(=O)NNC(=O)c1cccc(NC(=N)N)c1)C(=O)O	integrin α5β1	binding, solid-phase binding	–	–	–	IC50	0.00096 µM
O=C(O)CN1CCOCCN(CC(=O)O)Cc2cccc(n2)C1	protonation constant	–	–	0.15 M NaCl	–	log KH3	2.13
O=C(CCc1ccc(C(F)(F)F)cc1)N[C@H]1CCOC1=O	LuxR	reporter gene, luxI-luxCDABE reporter	–	–	–	IC50	2 µM
CC(C)=CCC/C(C)=C\CCn1cc(CC(P(=O)(O)O)P(=O)(O)O)nn1	geranylgeranyl diphosphate synthase	enzyme activity, inhibitor	–	–	–	IC50	0.075 µM
CC1(N(CC(=O)O)CC(=O)O)CN(CC(=O)O)CCN(CC(=O)O)C1	–	pH-potentiometry, item: logK5H	0.1 M KCl	25 °C	–	protonation constant (log)	1.56
FC(F)(F)C(F)(F)c1cc(-c2cccnc2)n[nH]1	Plasmodium falciparum formate-nitrite transporter	L-lactate transport, inhibitor, radiolabelled uptake	yeast	–	–	IC50	> 1000 µM
c1ccc2c(c1)CCCNC2c1c[nH]c2ncccc12 (stereo not drawn)	COLO 320 ABCB1-resistant colon	cytotoxicity	–	–	–	IC50	68.5 µM and 50 to 80 µM
COc1cccc(CNC(=O)c2ccc3cccc(O)c3n2)c1	urea transporter B (UT-B)	urea transport, inhibitor	–	–	–	IC50	> 50 µM
